Measurements collected from several papers.
± gives the spread as reported.
INS amyloid fibrils: Insulin, amyloid fibrils (INS, Bos taurus, UniProt P01317)
Chain of UniProt P01317 (whole entry, looked up): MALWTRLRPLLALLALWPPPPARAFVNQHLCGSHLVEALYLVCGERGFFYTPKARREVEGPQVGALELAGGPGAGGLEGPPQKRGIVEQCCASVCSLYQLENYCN
Tumor necrosis factor receptor superfamily member 1A extracellular domain: Tumor necrosis factor receptor superfamily member 1A, extracellular domain (Homo sapiens, UniProt P19438)
Chain of UniProt P19438 (whole entry, looked up): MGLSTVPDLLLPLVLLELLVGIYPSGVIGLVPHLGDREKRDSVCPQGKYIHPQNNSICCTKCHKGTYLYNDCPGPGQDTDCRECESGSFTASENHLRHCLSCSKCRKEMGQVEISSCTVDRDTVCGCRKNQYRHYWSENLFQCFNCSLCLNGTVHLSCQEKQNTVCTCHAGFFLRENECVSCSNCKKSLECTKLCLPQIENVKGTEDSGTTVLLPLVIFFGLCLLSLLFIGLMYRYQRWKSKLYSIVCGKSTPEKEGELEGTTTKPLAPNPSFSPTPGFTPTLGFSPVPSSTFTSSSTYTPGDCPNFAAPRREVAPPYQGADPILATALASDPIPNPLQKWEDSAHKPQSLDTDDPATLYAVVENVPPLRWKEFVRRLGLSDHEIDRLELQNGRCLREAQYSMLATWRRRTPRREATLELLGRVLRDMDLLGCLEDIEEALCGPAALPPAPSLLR
ISOC2: Isochorismatase domain-containing protein 2 (ISOC2, Homo sapiens, UniProt Q96AB3)
Chain of UniProt Q96AB3 (whole entry, looked up): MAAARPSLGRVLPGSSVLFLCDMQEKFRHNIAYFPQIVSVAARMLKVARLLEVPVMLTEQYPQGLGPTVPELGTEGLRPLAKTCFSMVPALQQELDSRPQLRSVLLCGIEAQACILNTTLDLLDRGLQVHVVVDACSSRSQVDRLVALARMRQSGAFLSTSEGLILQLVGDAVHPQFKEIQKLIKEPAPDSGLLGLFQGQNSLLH
Serine/threonine-protein kinase/endoribonuclease IRE1 N772Y: Serine/threonine-protein kinase/endoribonuclease IRE1 (Mus musculus, UniProt Q9EQY0, N772Y)
Chain of UniProt Q9EQY0 (whole entry, unmodified, looked up): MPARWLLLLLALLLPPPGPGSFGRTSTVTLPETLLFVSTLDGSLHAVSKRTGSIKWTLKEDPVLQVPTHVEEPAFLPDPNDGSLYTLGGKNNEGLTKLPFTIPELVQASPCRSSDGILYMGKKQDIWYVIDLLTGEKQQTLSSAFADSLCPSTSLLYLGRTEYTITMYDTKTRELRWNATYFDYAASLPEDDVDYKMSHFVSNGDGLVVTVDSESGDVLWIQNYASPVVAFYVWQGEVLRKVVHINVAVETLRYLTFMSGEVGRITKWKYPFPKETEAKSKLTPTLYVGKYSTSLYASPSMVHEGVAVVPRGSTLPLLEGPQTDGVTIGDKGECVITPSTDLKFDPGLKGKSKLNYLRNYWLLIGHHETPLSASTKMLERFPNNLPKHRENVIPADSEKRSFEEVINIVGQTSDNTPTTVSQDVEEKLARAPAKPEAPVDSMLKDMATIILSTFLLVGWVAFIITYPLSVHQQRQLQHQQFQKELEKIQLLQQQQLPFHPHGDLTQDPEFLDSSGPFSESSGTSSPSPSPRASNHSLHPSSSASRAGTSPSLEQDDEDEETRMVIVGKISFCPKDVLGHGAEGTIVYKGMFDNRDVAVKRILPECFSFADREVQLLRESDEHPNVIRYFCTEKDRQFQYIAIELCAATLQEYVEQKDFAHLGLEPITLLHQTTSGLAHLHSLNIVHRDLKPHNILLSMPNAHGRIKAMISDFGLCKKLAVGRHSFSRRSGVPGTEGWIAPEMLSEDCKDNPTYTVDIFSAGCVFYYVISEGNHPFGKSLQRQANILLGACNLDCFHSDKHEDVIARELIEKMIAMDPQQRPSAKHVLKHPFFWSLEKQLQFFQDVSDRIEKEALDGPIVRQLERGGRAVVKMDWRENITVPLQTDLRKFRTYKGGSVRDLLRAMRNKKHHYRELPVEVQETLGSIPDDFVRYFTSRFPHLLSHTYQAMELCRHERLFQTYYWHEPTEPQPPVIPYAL
CA2: Carbonic anhydrase 2 (CA2, Homo sapiens, UniProt P00918)
FKBP4 FK1 domain: Peptidyl-prolyl cis-trans isomerase FKBP4, FK1 domain (FKBP4, Homo sapiens, UniProt Q02790)
Chain of UniProt Q02790 (whole entry, looked up): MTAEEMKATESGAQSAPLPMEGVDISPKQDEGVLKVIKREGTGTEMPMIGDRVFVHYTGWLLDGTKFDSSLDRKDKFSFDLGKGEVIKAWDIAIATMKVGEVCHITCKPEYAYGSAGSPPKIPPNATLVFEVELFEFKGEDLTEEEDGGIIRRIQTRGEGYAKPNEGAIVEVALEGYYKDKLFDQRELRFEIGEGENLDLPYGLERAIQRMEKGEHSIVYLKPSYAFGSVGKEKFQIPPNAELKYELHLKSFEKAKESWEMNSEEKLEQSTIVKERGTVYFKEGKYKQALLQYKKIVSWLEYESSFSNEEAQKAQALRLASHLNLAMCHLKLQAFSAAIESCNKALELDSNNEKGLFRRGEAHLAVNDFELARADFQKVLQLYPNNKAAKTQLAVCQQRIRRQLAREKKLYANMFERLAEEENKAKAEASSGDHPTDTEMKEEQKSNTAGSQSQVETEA
ALDH1B1: Aldehyde dehydrogenase X, mitochondrial (ALDH1B1, Homo sapiens, UniProt P30837)
Chain of UniProt P30837 (whole entry, looked up): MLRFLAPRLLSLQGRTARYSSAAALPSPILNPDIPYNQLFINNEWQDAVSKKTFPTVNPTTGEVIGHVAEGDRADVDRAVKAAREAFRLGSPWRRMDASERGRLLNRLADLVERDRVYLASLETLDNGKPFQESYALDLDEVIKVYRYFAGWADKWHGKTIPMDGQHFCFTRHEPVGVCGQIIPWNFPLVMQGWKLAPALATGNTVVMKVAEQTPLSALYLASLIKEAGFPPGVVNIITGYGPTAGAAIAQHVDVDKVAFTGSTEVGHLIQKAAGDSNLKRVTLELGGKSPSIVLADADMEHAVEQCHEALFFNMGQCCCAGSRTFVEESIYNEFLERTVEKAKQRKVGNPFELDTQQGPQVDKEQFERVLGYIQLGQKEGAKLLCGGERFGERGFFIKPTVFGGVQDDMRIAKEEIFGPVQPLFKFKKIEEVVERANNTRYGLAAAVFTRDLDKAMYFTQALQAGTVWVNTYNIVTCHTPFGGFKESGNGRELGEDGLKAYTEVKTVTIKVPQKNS
14-3-3 protein epsilon: 14-3-3 protein epsilon (Homo sapiens, UniProt P62258)
Chain of UniProt P62258 (whole entry, looked up): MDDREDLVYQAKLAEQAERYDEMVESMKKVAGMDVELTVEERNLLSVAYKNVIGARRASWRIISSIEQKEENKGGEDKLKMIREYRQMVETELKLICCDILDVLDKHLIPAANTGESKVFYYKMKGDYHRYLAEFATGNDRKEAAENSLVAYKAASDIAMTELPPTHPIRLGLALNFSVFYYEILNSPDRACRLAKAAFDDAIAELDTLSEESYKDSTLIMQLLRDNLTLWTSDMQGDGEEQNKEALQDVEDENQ
Chain of UniProt Q04609 (whole entry, looked up): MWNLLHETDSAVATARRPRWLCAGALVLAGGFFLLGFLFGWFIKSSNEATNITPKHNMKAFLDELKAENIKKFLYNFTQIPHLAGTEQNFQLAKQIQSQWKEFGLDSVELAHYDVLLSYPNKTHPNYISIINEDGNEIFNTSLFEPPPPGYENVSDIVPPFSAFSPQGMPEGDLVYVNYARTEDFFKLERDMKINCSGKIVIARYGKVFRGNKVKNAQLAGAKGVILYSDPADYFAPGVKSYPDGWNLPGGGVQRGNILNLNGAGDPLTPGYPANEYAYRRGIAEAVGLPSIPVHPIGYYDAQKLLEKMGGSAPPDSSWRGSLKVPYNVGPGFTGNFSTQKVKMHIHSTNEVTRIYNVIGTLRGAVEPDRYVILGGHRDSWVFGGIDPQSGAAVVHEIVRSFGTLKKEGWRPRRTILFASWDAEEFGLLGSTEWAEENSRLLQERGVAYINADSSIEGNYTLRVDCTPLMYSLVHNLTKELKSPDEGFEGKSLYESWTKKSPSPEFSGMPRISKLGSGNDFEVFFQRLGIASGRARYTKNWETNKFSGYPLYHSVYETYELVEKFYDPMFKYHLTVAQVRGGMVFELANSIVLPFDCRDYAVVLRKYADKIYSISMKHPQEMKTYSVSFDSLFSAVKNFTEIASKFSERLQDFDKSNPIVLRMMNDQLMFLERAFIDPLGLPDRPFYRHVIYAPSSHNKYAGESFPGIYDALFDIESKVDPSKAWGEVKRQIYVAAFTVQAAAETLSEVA
Chain of UniProt P14635 (whole entry, looked up): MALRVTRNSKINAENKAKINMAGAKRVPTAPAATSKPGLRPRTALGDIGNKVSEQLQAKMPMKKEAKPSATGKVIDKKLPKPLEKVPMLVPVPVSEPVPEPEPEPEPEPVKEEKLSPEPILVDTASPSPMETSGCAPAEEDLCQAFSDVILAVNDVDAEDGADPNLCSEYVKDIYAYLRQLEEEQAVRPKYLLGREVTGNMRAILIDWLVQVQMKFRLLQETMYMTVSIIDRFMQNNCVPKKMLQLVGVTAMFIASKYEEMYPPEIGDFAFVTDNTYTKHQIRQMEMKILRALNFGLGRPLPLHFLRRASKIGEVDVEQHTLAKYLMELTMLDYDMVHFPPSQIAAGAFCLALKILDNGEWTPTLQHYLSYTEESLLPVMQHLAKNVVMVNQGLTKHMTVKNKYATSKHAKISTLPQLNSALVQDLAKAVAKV
Chain of UniProt Q16611 (whole entry, looked up): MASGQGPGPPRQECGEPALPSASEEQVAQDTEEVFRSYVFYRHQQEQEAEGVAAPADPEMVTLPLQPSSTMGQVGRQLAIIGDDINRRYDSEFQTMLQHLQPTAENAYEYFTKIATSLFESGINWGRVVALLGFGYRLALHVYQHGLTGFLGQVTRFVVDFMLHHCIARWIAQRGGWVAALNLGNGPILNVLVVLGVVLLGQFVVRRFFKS
Chain of UniProt Q9SQR3 (whole entry, looked up): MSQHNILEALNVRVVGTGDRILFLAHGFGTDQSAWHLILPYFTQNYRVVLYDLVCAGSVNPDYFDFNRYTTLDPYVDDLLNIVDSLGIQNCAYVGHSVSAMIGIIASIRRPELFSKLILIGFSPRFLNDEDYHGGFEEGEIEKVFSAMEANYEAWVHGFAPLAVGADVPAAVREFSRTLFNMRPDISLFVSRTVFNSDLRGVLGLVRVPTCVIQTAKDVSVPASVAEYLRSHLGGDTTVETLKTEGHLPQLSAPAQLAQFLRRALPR

Structure (SMILES)	target	test	system	conditions	Kd
F[B-]1(F)OC(c2ccc(N3CCCC3)cc2)=Nc2sc3cc(C(F)(F)F)ccc3[n+]21	INS amyloid fibrils	binding, fluorescence saturation			0.318 ± 0.024 µM
Cc1ccc(-c2ccnc(C(=O)O)c2)cc1	Tumor necrosis factor receptor superfamily member 1A extracellular domain	binding, SPR OneStep			1020 ± 120 µM
COc1ccc(Cn2ccc3ccc(C(=O)NO)cc32)cc1	ISOC2	inhibitor, competition pulldown	SW620 and MV4-11 lysate	1 h	> 30.2 µM
COc1cc(-c2ccc3c(c2)OCCN3C)cc(C=O)c1O	Serine/threonine-protein kinase/endoribonuclease IRE1 N772Y	microscale thermophoresis			13.3 µM
NS(=O)(=O)c1ccc(CN2C(=O)c3ccc(N4CCOCC4)cc3C2=O)cc1	CA2	binding			0.24 µM
F[B-]1(F)OC(c2ccc(N(c3ccccc3)c3ccccc3)cc2)=Nc2sc3cc(C(F)(F)F)ccc3[n+]21	INS amyloid fibrils	binding, fluorescence saturation			0.297 ± 0.05 µM
O=C1[C@@H]2CCC[C@H]([C@@H](C(O)CO)CN1Cc1ccccn1)N2S(=O)(=O)c1cc(Cl)cc(Cl)c1 (some centres unmarked)	FKBP4 FK1 domain	competitive fluorescence polarization		protein 10 nM, added: 1 nM tracer	0.025 ± 0.003 µM
O=C(O)c1cncc(-c2ccc(F)cc2)c1	Tumor necrosis factor receptor superfamily member 1A extracellular domain	binding, SPR OneStep			1910 ± 10 µM
CCc1nc2cc3ccccc3cc2cc1C(=O)N1CCC[C@H]1C(=O)N[C@@H](CCC/C=C/CCC[C@H](NC(=O)[C@@H]1CCCN1C(=O)c1cc2cc3ccccc3cc2nc1CC)C(=O)N[C@@H](CCCCN)C(=O)NCCCN)C(=O)N[C@@H](CCCCN)C(=O)NCCCN	(CUG)2 RNA	SPR			0.568 µM
COc1ccc(C(=O)NO)cc1NC(=O)c1ccc(-c2ccccc2)cc1	ISOC2	inhibitor, competition pulldown	SW620 and MV4-11 lysate	1 h	> 30.2 µM
O=C(O)c1ccc(-c2ccc(F)cc2)cn1	Tumor necrosis factor receptor superfamily member 1A extracellular domain	binding, SPR OneStep injection		fragment hits, kinetic fit	1030 ± 140 µM
C=C[C@H]1CN(Cc2ccccn2)C(=O)[C@@H]2CCC[C@H]1N2Sc1cc(Cl)cc(Cl)c1	FKBP4 FK1 domain	competitive fluorescence polarization		protein 10 nM, added: 1 nM tracer	> 40 µM
O=C(NO)c1cnc(NC2(c3cccc(F)c3)CCCCC2)nc1	ISOC2	inhibitor, competition pulldown	SW620 and MV4-11 lysate	1 h	> 30.2 µM
O=C1Nc2ccc(Cl)cc2[C@@](C#CC2CC2)(C(F)(F)F)O1	ALDH1B1	binding, SPR			13.4 µM
CCc1nc2cc3ccccc3cc2cc1C(=O)N1CCC[C@H]1C(=O)N[C@@H](C/C=C/C[C@H](NC(=O)[C@@H]1CCCN1C(=O)c1cc2cc3ccccc3cc2nc1CC)C(=O)N[C@@H](CCCCN)C(=O)NCCCN)C(=O)N[C@@H](CCCCN)C(=O)NCCCN	(CUG)2 RNA	SPR			0.01 µM
O=C([O-])CN1CCN(CC(=O)[O-])CCN(CC(=O)NC[C@H]2CC[C@H](C(=O)N[C@@H](Cc3ccc4ccccc4c3)C(=O)NCCCC[C@H](NC(=O)N[C@@H](CCC(=O)O)C(=O)O)C(=O)O)CC2)CCN(CC(=O)[O-])CC1.[Ga+3]	Glutamate carboxypeptidase 2 (FOLH1, Homo sapiens, UniProt Q04609)	binding, radioligand			0.013 µM
COC1(C2=NCCN2)COc2ccccc2O1 (centres unmarked)	α2-adrenergic receptor chimera	[3H]compound saturation binding	HEK293 membranes	α2a(NT)/α2c(TM1-CT)-AR chimera	0.00174 ± 0.00021 µM
Cn1ncc2cc(-c3cncc(Cl)c3N3CCC4(CCNC4=O)CC3)ccc21	G2/mitotic-specific cyclin-B1 (Homo sapiens, UniProt P14635)	SILAC displacement	LS174T-L5 cell lysate		8.78 µM
CSc1nc2cc(Cl)c(Oc3cccc(Cl)c3Cl)cc2[nH]1	ALDH1B1	binding, SPR			11.8 µM
NS(=O)(=O)c1ccc(N2C(=O)c3ccc(N4CCOCC4)cc3C2=O)cc1	CA2	binding			0.24 µM
C=CC(=O)N1C[C@H](C)N(c2nc(OC[C@@]34CCCN3C[C@H](F)C4)nc3c(F)c(-c4ccc(F)c5sc(N)c(C#N)c45)c(C(F)(F)F)cc23)C[C@H]1C	GTPase KRas, GDP-bound (KRAS, Homo sapiens, UniProt P01116, G12D)	SPR			0.00552 ± 0.0013 µM
C=CC1CN(Cc2ccccn2)C(=O)C2CCCC1N2[S+]([O-])c1cc(Cl)cc(Cl)c1 (centres unmarked)	FKBP4 FK1 domain	competitive fluorescence polarization		protein 10 nM, added: 1 nM tracer	3.98 µM
C[n+]1c(/C=C/c2ccc(N(c3ccccc3)c3ccccc3)cc2)cc(/C=C2\Sc3ccccc3N2CCCN2CCCC2)c2ccccc21	Telo21 DNA	isothermal titration calorimetry		pH 7.4, 25 °C, 2% DMSO	36.5 µM
CC[C@H](C)[C@H](NC(=O)[C@H](Cc1ccc(O)cc1)NC(=O)[C@H](CC(N)=O)NC(=O)[C@@H](NC(=O)[C@H](CCCNC(=N)N)NC(=O)[C@H](CC(=O)O)NC(=O)CNC(=O)[C@@H](NC(=O)[C@H](CCC(=O)O)NC(=O)[C@H](CCCCN)NC(=O)[C@@H](NC(=O)[C@H](CCC(N)=O)NC(=O)[C@@H](NC(=O)[C@H](CS)NC(=O)[C@H](CCSC)NC(=O)[C@H](CCC(N)=O)NC(=O)[C@H](CCC(=O)O)NC(=O)[C@@H](NC(=O)[C@H](CCCNC(=N)N)NC(=O)[C@H](CCC(=O)O)NC(=O)[C@H](Cc1ccccc1)NC(C)=O)C(C)C)[C@@H](C)CC)[C@@H](C)CC)C(C)C)C(C)C)C(=O)N[C@@H](CCCCN)C(=O)N[C@@H](CCCNC(=N)N)C(=O)N[C@@H](CO)C(=O)N[C@@H](CC(C)C)C(N)=O	Bcl-2 homologous antagonist/killer (BAK1, Homo sapiens, UniProt Q16611)	binding, FP		pH 8	> 20 µM
CC(=O)N[C@@H](CCCNC(=N)N)C(=O)N[C@H](C(=O)N[C@@H](CCCCN)C(=O)N[C@@H](CO)C(=O)N[C@@H](CCCNC(=N)N)C(=O)N[C@H](C(=O)N[C@@H](Cc1c[nH]c2ccccc12)C(=O)N[C@@H](C)C(=O)NCC(N)=O)[C@@H](C)OP(=O)(O)O)[C@@H](C)O	14-3-3 protein epsilon	binding, SPR		pH 7.4	0.0452 µM
COc1cc(-c2ccc(N3CCOCC3)cc2)cc(C=O)c1O	Serine/threonine-protein kinase/endoribonuclease IRE1 N772Y	microscale thermophoresis			14.7 µM
O=C(O)c1ccnc(-c2ccc3[nH]ccc3c2)c1	Tumor necrosis factor receptor superfamily member 1A extracellular domain	binding, SPR OneStep			627 ± 8 µM
CC(=O)N[C@@H](CCCNC(=N)N)C(=O)N[C@H](C(=O)N[C@@H](CCCCN)C(=O)N[C@@H](CO)C(=O)N[C@@H](CCCNC(=N)N)C(=O)N[C@H](C(=O)N[C@@H](Cc1c[nH]c2ccccc12)C(=O)N[C@@H](C)C(=O)NCC(=O)N[C@@H](CCC(=O)O)C(=O)N[C@@H](CCCCN)C(=O)N[C@@H](CO)C(=O)N[C@@H](CCCCN)C(=O)N[C@@H](CCCNC(=N)N)C(N)=O)[C@@H](C)OP(=O)(O)O)[C@@H](C)O	14-3-3 protein epsilon	binding, SPR		pH 7.4	0.144 µM
Cc1cccc2c1N(C(=O)n1ccnn1)CC2	D14 (Arabidopsis thaliana, UniProt Q9SQR3)	ITC		mean of 3 runs	42.1 µM
